Results gathered from unrelated publications.
Protocols differ between the studies behind these lines. ± gives the spread as reported.
Organism: Salmonella typhimurium

SMILES | test | test system | setting | scale | measurement | value
OC(CCN1CC=C(c2ccc(F)cc2)CC1)c1ccc(F)c2ccccc12 (stereo not shown) | SOS/umu test | TA1535/pSK1002 | 0.031 mg/mL, 4 h, with S9, full range | – | survival | 74.5%
O=[N+]([O-])c1ccc2c(c1)Cc1ccccc1-2 | – | TA98 | 1 µg/plate, with: without S9 | baseline: vehicle control | revertant fold increase | 6.5
O=C(O)CCCOc1ccc(F)cc1-c1cc(-c2ccccc2C(F)(F)F)n(-c2ccccc2)n1 | Ames test | TA98 | concentration not given, without S9 metabolic activation | – | growth-inhibiting concentration | ≥ 1250 µg/plate
Cc1cc(C(=O)NC(C)(C)COc2cccc3c2C(N)=NS(=O)(=O)N3)cc(C)n1 | Ames test | TA98 | 5000 µg/plate, without S9 | baseline: solvent | revertant ratio treated over solvent | 1.3
COc1cccc(-c2n[nH]c(SCc3ccccn3)n2)c1OC | Ames test, preincubation | TA1535 | 0.50 mg/plate, without S9 | – | revertant colonies per plate | 16
CN(CC(C)(C)C)N=O | mutagenicity, Ames plate incorporation | TA98 | 50 µg/plate, without S9, methanol | – | revertant colonies per plate | 24 ± 4
O=[N+]([O-])c1ccc2c(c1)Cc1ccccc1-2 | preincubation Ames test | TA98 | 5 µg per plate | – | revertant colonies per plate | 1370
Fc1ccc(C2=CCNCC2)cc1 | genotoxicity, SOS/umu test | TA1535/pSK1002 | 0.125 mg/mL, 4 h, without S9, full range | – | induction factor | 0.8
N#C[C@@]1(n2ccc(N)nc2=O)O[C@H](CO)[C@@H](O)[C@H]1O | – | TA98 | 25 µM, without S9 | – | viability | 97%
Nc1ccc2cc3ccccc3cc2c1 | Ames test, confirmatory | TA1537 | 2.0 µg/plate, with: rat liver S9 | baseline: solvent control | revertant ratio | 4.1
O=[N+]([O-])c1ccc(NC2CCNCC2)c(C(F)(F)F)c1 | genotoxicity, SOS/umu test | TA1535/pSK1002 | 0.008 mg/mL, 4 h, with S9, full range | – | induction factor | 0.7
CNC(=O)c1c(N(C)N=O)ncn1C | plate incorporation | TA1537, water | 50 µg/plate, without S9 | – | revertant colonies per plate | 9.7 ± 1
O=[N+]([O-])c1ccc(N2CCC(NCCC(O)c3ccc(F)c4ccccc34)CC2)c(C(F)(F)F)c1 (stereo not shown) | SOS/umu test | TA1535/pSK1002 | 0.004 mg/mL, 4 h, without S9, lower range | – | survival | 98.8%
CC(=O)N1CCC(C(=O)N2CCN3C(=O)c4cc(-c5ccccc5)ccc4NC(=O)C3C2)CC1 (stereo not shown) | – | TA98 | 15.8 µg/plate, with: rat liver S9 | – | revertants per plate | 40
CC(C)N(N=O)C(C)C | mutagenicity, Ames plate incorporation | TA1535 | 5000 µg/plate, without S9, methanol | – | revertant colonies per plate | 30.7 ± 6
O=[N+]([O-])c1ccc(N2CCN(CCC(O)c3ccc(F)cc3)CC2)c(C(F)(F)F)c1 (stereo not shown) | SOS/umu test | TA1535/pSK1002, TGA medium | 0.000244 mg/mL, 4 h, with: 10% rat liver S9 | – | survival | 88.9%

Excerpt of the above:
SMILES | test | test system | setting | scale | measurement | value
Fc1ccc(C2=CCNCC2)cc1 | genotoxicity, SOS/umu test | TA1535/pSK1002 | 0.125 mg/mL, 4 h, without S9, full range | – | induction factor | 0.8
